Results of several laboratories.
Lines come from different studies, so protocols differ.
Organism: Escherichia coli

Compound = CC(=O)OCC1=C(C(=O)O)N2C(=O)[C@@H](NC(=O)Cc3cccs3)[C@H]2SC1; MIC = 62.5 µg/mL
Compound = CC[C@@H](C)[C@@H](N)C(=O)N[C@@H](C(=O)N[C@H](Cc1ccc(O)cc1)C(=O)N[C@@H](C(=O)N[C@H](CCN)C(=O)N[C@H](CC(C)C)C(=O)N[C@H](CO)C(=O)N[C@H](CCN)C(=O)N[C@@H](C(=O)N[C@H](CCN)C(=O)N[C@H](Cc1c[nH]cn1)C(=O)N[C@H](CCN)C(=O)N[C@H](C)C(=O)N[C@H](CCN)C(=O)N[C@H](CCN)C(N)=O)[C@H](C)CC)[C@H](C)CC)[C@H](C)CC; test = broth microdilution; test system = CDC 0001, Mueller-Hinton broth; MIC = 2 µg/mL
Compound = CC[C@H](C)[C@H](NC(=O)[C@H](CCCNC(=N)N)NC(=O)[C@H](CO)NC(=O)[C@H](Cc1ccc(O)cc1)NC(=O)[C@@H](NC(=O)[C@@H](NC(=O)[C@H](C)NC(=O)CNC(=O)[C@H](CCCCN)NC(=O)[C@@H](N)CCCCN)C(C)C)[C@@H](C)O)C(=O)N[C@@H](CO)C(=O)NCC(=O)N[C@@H](CCC(N)=O)C(=O)N[C@@H](Cc1ccc(O)cc1)C(=O)N[C@@H](CCCCN)C(=O)O; test = broth microdilution; test system = ATCC 25922, Mueller-Hinton broth; conditions = 16 to 18 h, 37 °C; MIC = > 96 µM
Compound = CC[C@H](C)[C@H](NC(=O)CNC(=O)[C@H](CC(=O)O)NC(=O)[C@H](CCCNC(=N)N)NC(=O)[C@@H](NC(=O)[C@H](CC(N)=O)NC(=O)[C@H](C)NC(=O)CNC(=O)[C@@H](NC(=O)[C@H](CCCCN)NC(=O)[C@H](CCC(=O)O)NC(=O)[C@@H](NC(=O)[C@H](CCCCN)NC(=O)[C@H](CCCCN)NC(=O)[C@H](Cc1ccccc1)NC(=O)[C@@H](NC(=O)[C@H](CCCCN)NC(=O)[C@H](Cc1c[nH]c2ccccc12)NC(=O)[C@@H](N)CCCNC(=N)N)[C@@H](C)CC)[C@@H](C)CC)C(C)C)C(C)C)C(=O)N[C@H](C(=O)N[C@@H](CCCCN)C(=O)N[C@@H](C)C(=O)NCC(=O)N1CCC[C@H]1C(=O)N[C@@H](C)C(=O)N[C@H](C(=O)N[C@@H](C)C(=O)N[C@H](C(=O)N[C@H](C(=O)NCC(=O)N[C@@H](CCC(N)=O)C(=O)N[C@@H](C)C(=O)N[C@@H](C)C(=O)N[C@H](C(=O)N[C@H](C(=O)N[C@H](C(=O)N[C@@H](CCCCN)C(N)=O)C(C)C)C(C)C)[C@@H](C)O)C(C)C)C(C)C)C(C)C)[C@@H](C)CC; test system = K1 ATCC 700973, Mueller-Hinton broth; conditions = 16 h, 37 °C; scale = growth inhibition over 99%; MIC = 2 µM
Compound = CCCCCC(=O)N[C@@H](CCCNC(=N)N)C(=O)N[C@@H](CCCNC(=N)N)C(=O)N[C@@H](CCCNC(=N)N)C(=O)N[C@@H](CCCNC(=N)N)C(=O)N[C@H](C(=O)N[C@@H](CC(C)C)C(=O)N[C@H](C(=O)N[C@@H](CCCNC(=N)N)C(=O)N[C@@H](CCCNC(=N)N)C(=O)N[C@H](C(=O)N[C@@H](CC(C)C)C(=O)N[C@@H](CCCNC(=N)N)C(=O)N[C@@H](CC(C)C)C(=O)N[C@@H](CCCNC(=N)N)C(=O)N[C@@H](CO)C(=O)N[C@@H](CO)C(=O)N[C@@H](C)C(=O)N[C@@H](Cc1ccc(O)cc1)C(N)=O)C(C)C)[C@@H](C)CC)[C@@H](C)CC; test = checkerboard; conditions = 24 h, 37 °C, alone, rifampicin plate; MIC = 8 µM
Compound = CC[C@H](C)[C@H](N)C(=O)N[C@@H](CC(C)C)C(=O)NCC(=O)N[C@@H](CCC(=O)O)C(=O)N[C@H](C(=O)N[C@@H](Cc1c[nH]c2ccccc12)C(=O)N[C@@H](CCCCN)C(=O)NCC(=O)N[C@H](C(=O)N[C@@H](CCCCN)C(=O)N[C@@H](CC(=O)O)C(=O)N[C@H](C(=O)N[C@@H](CC(C)C)C(N)=O)[C@@H](C)CC)[C@@H](C)CC)[C@@H](C)CC; test = broth microdilution; test system = ATCC 25922; conditions = added: NaCl 150 mM; MIC = 100 µM
Compound = CC(C)Oc1c(NC(=O)c2ccc(NC(=O)[C@H](CC(N)=O)NC(=O)c3ccc(NC(=O)c4ccc(C#N)c(F)c4)cc3)cc2)ccc(C(=O)Nc2ccc(C(=O)O)cc2)c1O; test system = K12 ΔtolC; MIC = ≤ 0.03 µg/mL
Compound = c1ccc(CNCc2ccccn2)nc1; test system = NDM-1 producing; conditions = compound alone; MIC = 1000 µM
Compound = CC[C@H](C)[C@H](NC(=O)[C@H](CCCCN)NC(=O)[C@H](CCCNC(=N)N)NC(=O)[C@H](CCCNC(=N)N)NC(=O)[C@H](CC(C)C)NC(=O)[C@H](CCCCN)NC(=O)[C@H](CCCCN)NC(=O)[C@H](Cc1ccccc1)NC(=O)[C@H](CC(C)C)NC(=O)CNC(=O)[C@H](CCCNC(=N)N)NC(=O)[C@@H](N)CCCNC(=N)N)C(=O)N[C@@H](CCCCN)C(=O)N[C@@H](CCCCN)C(=O)NCC(=O)N[C@@H](Cc1ccccc1)C(=O)N[C@@H](CCCCN)C(=O)N[C@@H](CCCCN)C(=O)N[C@H](C(=O)N[C@@H](Cc1ccccc1)C(=O)N[C@@H](CCCCN)C(=O)N[C@@H](CCCNC(=N)N)C(=O)N[C@@H](CC(C)C)C(=O)N1CCC[C@H]1C(=O)N1CCC[C@H]1C(=O)N[C@H](C(=O)NCC(=O)N[C@H](C(=O)NCC(=O)N[C@H](C(=O)N[C@@H](CO)C(=O)O)C(C)C)C(C)C)C(C)C)[C@@H](C)CC; test system = ATCC 25922; conditions = highest concentration 50 µM; MIC = 1.29 µM
Compound = CC[C@H](C)[C@H](NC(=O)[C@H](C)NC(=O)CNC(=O)[C@H](C)NC(=O)[C@H](CCCNC(=N)N)NC(=O)[C@H](CO)NC(=O)[C@H](C)NC(=O)[C@H](CCSC)NC(=O)CN)C(=O)N[C@@H](C)C(=O)NCC(=O)N[C@@H](CCCNC(=N)N)C(=O)N[C@H](C(=O)N[C@@H](C)C(=O)N[C@@H](CCCNC(=N)N)C(=O)N[C@H](C(=O)N[C@@H](C)C(=O)N[C@@H](CC(C)C)C(=O)N[C@@H](CCCNC(=N)N)C(=O)N[C@@H](C)C(=O)N[C@@H](CC(C)C)C(N)=O)C(C)C)[C@@H](C)CC; test = broth dilution; test system = K12 BW25113; conditions = 18 h, 37 °C; MIC = 1.9 µM
Compound = CC[C@H](C)[C@H](NC(=O)[C@H](CC(C)C)NC(=O)[C@H](CCCCN)NC(=O)[C@@H](NC(=O)[C@H](C)NC(=O)[C@H](CCC(=O)O)NC(=O)[C@H](Cc1c[nH]cn1)NC(=O)[C@@H](NC(=O)[C@H](CCCCN)NC(=O)[C@H](CCC(N)=O)NC(=O)[C@H](Cc1ccccc1)NC(=O)[C@@H](NC(=O)[C@H](CCCCN)NC(=O)[C@@H](N)CCCCN)C(C)C)[C@@H](C)CC)[C@@H](C)CC)C(N)=O; test = broth microdilution; test system = CCARM 1229 resistant; conditions = 18 h, 37 °C; MIC = 16 µM
Compound = CC1(C)S[C@@H]2[C@H](NC(=O)C(C(=O)O)c3ccccc3)C(=O)N2[C@H]1C(=O)O (stereo partly shown); test = broth microdilution; test system = Keio mutant JW5195-1; conditions = 18 h; MIC = 3.12 µg/mL
Compound = CC[C@H](C)[C@H](NC(=O)[C@H](CCCCN)NC(=O)[C@H](CCCCN)NC(=O)CNC(=O)[C@H](Cc1ccccc1)NC(=O)[C@H](CCCNC(=N)N)NC(=O)[C@H](Cc1c[nH]c2ccccc12)NC(=O)[C@H](CCCCN)NC(=O)[C@@H](N)CCCCN)C(=O)N[C@@H](CCC(=O)O)C(=O)N[C@@H](CCCCN)C(=O)N[C@H](C(=O)NCC(=O)N[C@@H](CCCCN)C(=O)N[C@@H](CCCNC(=N)N)C(=O)N[C@H](C(=O)N[C@@H](Cc1ccccc1)C(=O)N[C@@H](CCCCN)C(=O)N[C@@H](C)C(=O)N[C@@H](CCC(=O)O)C(=O)N[C@@H](CCC(=O)O)C(=O)N[C@@H](CCCCN)C(=O)N[C@@H](C)C(=O)N[C@@H](CC(C)C)C(=O)N1CCC[C@H]1C(=O)N[C@H](C(=O)N[C@@H](CC(C)C)C(=O)N[C@@H](C)C(=O)NCC(=O)N[C@H](C(=O)N[C@@H](CCCCN)C(=O)N[C@@H](C)C(=O)N[C@H](C(=O)O)C(C)C)C(C)C)C(C)C)C(C)C)C(C)C; test = broth microdilution; test system = K88, Mueller-Hinton broth; conditions = 37 °C; MIC = 1.18 µM
Compound = CC1(C)SC2C(NC(=O)C(NC(=O)C3=C(O)C(c4ccccc4)NC3=O)c3ccccc3)C(=O)N2C1C(=O)O (stereo not shown); test = broth microdilution; test system = Keio mutant JW2142-1; MIC = 25 µg/mL
Compound = CN(C)c1cc(NC(=O)CNC(C)(C)C)c(O)c2c1C[C@H]1C[C@H]3[C@H](N(C)C)C(O)=C(C(N)=O)C(=O)[C@@]3(O)C(O)=C1C2=O; test system = DH5a with empty vector; MIC = 0.125 µg/mL
Compound = CCCCCCC/C=C/C(=O)N1C(=O)/C(=C(\O)CCCC)C(=O)C1CC(C)C (stereo not shown); test system = K12 ΔtolC; MIC = 100 µg/mL

A few entries again:
Compound = CC[C@H](C)[C@H](NC(=O)[C@H](CCCCN)NC(=O)[C@H](CCCCN)NC(=O)CNC(=O)[C@H](Cc1ccccc1)NC(=O)[C@H](CCCNC(=N)N)NC(=O)[C@H](Cc1c[nH]c2ccccc12)NC(=O)[C@H](CCCCN)NC(=O)[C@@H](N)CCCCN)C(=O)N[C@@H](CCC(=O)O)C(=O)N[C@@H](CCCCN)C(=O)N[C@H](C(=O)NCC(=O)N[C@@H](CCCCN)C(=O)N[C@@H](CCCNC(=N)N)C(=O)N[C@H](C(=O)N[C@@H](Cc1ccccc1)C(=O)N[C@@H](CCCCN)C(=O)N[C@@H](C)C(=O)N[C@@H](CCC(=O)O)C(=O)N[C@@H](CCC(=O)O)C(=O)N[C@@H](CCCCN)C(=O)N[C@@H](C)C(=O)N[C@@H](CC(C)C)C(=O)N1CCC[C@H]1C(=O)N[C@H](C(=O)N[C@@H](CC(C)C)C(=O)N[C@@H](C)C(=O)NCC(=O)N[C@H](C(=O)N[C@@H](CCCCN)C(=O)N[C@@H](C)C(=O)N[C@H](C(=O)O)C(C)C)C(C)C)C(C)C)C(C)C)C(C)C; test = broth microdilution; test system = K88, Mueller-Hinton broth; conditions = 37 °C; MIC = 1.18 µM
